Published values of several laboratories.
Each line is one published result; not all experiments were run side by side.
Target: Cyclin-dependent kinase 11A (CDK11A, Homo sapiens, UniProt Q9UQ88)

SMILES | observed | technique | concentration | reference | remaining binding [%]
COc1cc(Nc2nccc(-c3cnn4nc(OC)ccc34)n2)cc(C(F)(F)F)c1 | binding | competition with immobilised ligand | 1 µM | – | 81
COc1c(Cl)cccc1Nc1c(-c2ccncc2C#C[C@@]2(C)CCCN2C(=O)/C=C/CN(C)C)[nH]c2c1C(=O)NCC2 | binding | competition with immobilised ligand | 3 µM | – | 97
C=CC(=O)N1CCc2ccc(-n3c(=O)ccc4cnc5ccc(-c6cnn(C)c6)cc5c43)cc21 | – | KINOMEscan | 1 µM | DMSO control | 100
CC(C)=CC1OC(C)(C)C2C=C3C(=O)C(Cl)=CC(O)C3C3C(O)C4OC4C(=O)C132 (centres unmarked) | cell-free assay | competition with immobilised ligand | 10 µM | – | 93
CCN1CCN(Cc2ccc(NC(=O)c3ccc(C)c(NC(=O)c4cncc(-c5cccs5)c4)c3)cc2C(F)(F)F)CC1 | binding | competition with immobilised ligand | 1 µM | – | 36
Cc1cnc2nc1Nc1cccc(c1)COC/C=C/COCc1cc(ccc1OCCN1CCOCC1)N2 | binding | – | 0.1 µM | – | 99
CNC(=O)C1CCN(c2cc(C)c(F)cc2NC(=O)c2ccc(-c3cc(O)ccc3C)c(C)c2)CC1 | binding | competition with immobilised ligand | 1 µM | – | 88
CCN1CCN(Cc2ccc(C(=O)Nc3ccc(C)c(NCc4cnc5[nH]ccc5c4OC)c3)cc2C(F)(F)F)CC1 | binding | competition with immobilised ligand | 1 µM | – | 78
Cc1ccc(-c2c(/C=C(\C#N)C(=O)NC(C)C)n(CCCO)c3ncnc(N)c23)cc1 | cell-free assay | competition with immobilised ligand | 1 µM | – | 87
Nc1ncc2c(n1)-c1c([nH]c3ccc(C4=CCOCC4)cc13)CCC2 | binding | competition with immobilised ligand | 1 µM | – | 100
CNC1C[S+]2CC[S+]3CC[S+](C1)[Ru-4]321([N]=C=S)[n]2c3ccc(OC)cc3c3c4c(c5cc(F)c[n+]1c5c32)C(=O)NC4=O (centres unmarked) | – | KinomeScan | 0.1 µM | untreated | 96

Excerpt of the above:
SMILES | observed | technique | concentration | reference | remaining binding [%]
CC(C)=CC1OC(C)(C)C2C=C3C(=O)C(Cl)=CC(O)C3C3C(O)C4OC4C(=O)C132 (centres unmarked) | cell-free assay | competition with immobilised ligand | 10 µM | – | 93
